# Assay results collected from several papers.
# Numbered parts are unrelated; each lists some results of a single study. Substitutions count along the parent as printed.

# Sample 1
# Target: UBE2J2 UBC core domain (UniProt Q8N2K1)
# Sequence of UniProt Q8N2K1 (whole entry, looked up): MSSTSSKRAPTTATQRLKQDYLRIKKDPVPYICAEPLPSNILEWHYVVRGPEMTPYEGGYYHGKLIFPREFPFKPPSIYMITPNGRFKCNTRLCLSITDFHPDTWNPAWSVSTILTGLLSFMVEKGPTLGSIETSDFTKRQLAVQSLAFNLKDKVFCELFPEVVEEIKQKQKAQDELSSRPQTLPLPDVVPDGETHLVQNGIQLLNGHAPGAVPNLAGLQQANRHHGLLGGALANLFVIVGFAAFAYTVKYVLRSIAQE
# Technique: yeast two-hybrid
# Matrix: yeast
# Setting: mostly zero background
# Relative to: not given
# Reading: higher = stronger interaction
# B1: MEX3B RING domain (UniProt Q6ZN04); chain SGLRRKGSRDCSVCFESEVIAALVPCGHNLFCMECANRICEKSEPECPVCHTAVTQAIRIF
# B2: TRIM31 RING domain (UniProt Q9BZY9); chain FVNKLQEEVICPICLDILQKPVTIDCGHNFCLKCITQIGETSCGFFKCPLCKTSVRKNAIRF
# B3: TRIM26 RING domain (UniProt Q12899); chain PLRSLEEEVTCSICLDYLRDPVTIDCGHVFCRSCTTDVRPISGSRPVCPLCKKPFKKENIRP
# B4: MYCBP2 RING domain (UniProt O75592); chain TSLKQDADDMCMICFTEALSAAPAIQLDCSHIFHLQCCRRVLENRWLGPRITFGFISCPICKNKINHIVLKD
# B5: RLIM RING domain (UniProt Q9NVW2); chain SFGENDALKTCSVCITEYTEGNKLRKLPCSHEYHVHCIDRWLSENSTCPICRRAVLASGNRE
# B6: RNF2 RING domain (UniProt Q99496); chain SPRSLHSELMCPICLDMLKNTMTTKECLHRFCADCIITALRSGNKECPTCRKKLVSKRSLR
# B7: MKRN2 RING domain (UniProt Q9H000); chain FAFQASQDKVCSICMEVILEKASASERRFGILSNCNHTYCLSCIRQWRCAKQFENPIIKSCPECRVISEFVIPSV
# B8: DEF8 RING domain (UniProt Q6ZN54); chain AGRLGCSLTEIHTLFAKHIKLDCERCQAKGFVCELCREGDVLFPFDSHTSVCADCSAVFHRDCYYDNSTTCPKCARLSLRK
# B9: TRIM60 RING domain (UniProt Q495X7); chain ALVNLQEESSCPICLEYLKDPVTINCGHNFCRSCLSVSWKDLDDTFPCPVCRFCFPYKSFRR
# B10: RNF152 RING domain (UniProt Q8N8N0); chain ETLSQDSLLECQICFNYYSPRRRPKLLDCKHTCCSVCLQQMRTSQKDVRCPWCRGVTKLPPGFS
Sequence,lacZ reporter activity
LDAASGHPLVCPLCHGQYERPCLLDCFHDFCTGCLRGRATDGRLSCPLCQHQTLVKGPSG (Rnf207 RING domain (UniProt Q3V3A7)),0
B1 (MEX3B RING domain),0
B2 (TRIM31 RING domain),0
B3 (TRIM26 RING domain),0
B4 (MYCBP2 RING domain),0
B5 (RLIM RING domain),0
B6 (RNF2 RING domain),2870
AEADPLGRFTCPVCLEVYEKPVQVPCGHVFCSACLQECLKPKKPVCGVCRSALAPGVRAV (RNF114 RING domain (UniProt Q9Y508)),0
FVKTVEDKYKCEKCHLVLCSPKQTECGHRFCESCMAALLSSSSPKCTACQESIVKDKVF (TRAF3 RING domain (UniProt Q13114)),0
B7 (MKRN2 RING domain),0
B8 (DEF8 RING domain),0
B9 (TRIM60 RING domain),0
B10 (RNF152 RING domain),2670
YCEMGSTFQLCKICAENDKDVKIEPCGHLMCTSCLTAWQESDGQGCPFCRCEIKGTEPII (CBLB RING domain (UniProt Q13191)),0

# Sample 2
# Target: CREB3L4, bZIP domain (human)
# Technique: DHFR protein complementation
# Matrix: yeast
# Setting: single substitutions, most at no-binding floor
# Relative to: wild-type JUN-FOS pair
# Reading: higher = stronger binding
# Starting sequence: JUN, bZIP domain (human); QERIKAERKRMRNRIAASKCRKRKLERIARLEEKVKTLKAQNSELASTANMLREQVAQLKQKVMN; partner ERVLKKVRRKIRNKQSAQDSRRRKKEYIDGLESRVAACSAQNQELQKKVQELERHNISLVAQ
Variant,binding fitness [natural log]
E33N,-1.35
L31S,-1.49
A49D,-1.57
K34G,-1.48
E44K,-1.53
L38G,-1.5
L38A,-1.55
T37E,-1.42
L38F,-1.47
E44Y,-1.26
I28N,-1.55
M51S,-1.44
E33P,-1.49
L52C,-1.48
A40C,-1.5
R53S,-1.43
E44A,-1.27
E33G,-1.42
L31R,-1.49
V56R,-1.47
A57R,-1.29
A46N,-1.53

# Sample 3
# Target: RING finger protein unkempt homolog, zinc fingers 1-6, SBP tag (UNK, Homo sapiens, UniProt Q9C0B0, residues 30-357)
# Sequence of UniProt Q9C0B0 (30-357, looked up): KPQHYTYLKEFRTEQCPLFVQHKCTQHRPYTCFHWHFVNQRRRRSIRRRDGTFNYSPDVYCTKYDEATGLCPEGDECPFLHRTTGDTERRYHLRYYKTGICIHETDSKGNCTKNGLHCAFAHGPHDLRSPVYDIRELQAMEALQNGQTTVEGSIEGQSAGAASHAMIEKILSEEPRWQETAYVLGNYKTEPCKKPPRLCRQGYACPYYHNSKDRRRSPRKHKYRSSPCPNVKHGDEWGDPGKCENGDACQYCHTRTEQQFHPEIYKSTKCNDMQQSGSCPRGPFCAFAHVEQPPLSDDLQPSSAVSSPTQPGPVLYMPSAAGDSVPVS
# Technique: RNA Bind-n-Seq
# Molecule type: RNA
# Matrix: in vitro
# Tested at: 100 nM
# Setting: RNA with constant flanks, vertebrate orthologous sites, ends assumed
# Relative to: input RNA pool
# Reading: higher = stronger binding
# Constant ends, left off below: GGGAGUUCUACAGUCCGACGAUC … CAACAGAGGAUUGAGCAUCA
Oligonucleotide,bound/input enrichment
GCUGUCUACCUGCCAGCCUUCUUCUAGGGGCGGCUUCAGAUCUAUCAGAUGUGUUGUAUCUAGGUGAGUUCAAUAUUUUUUUAUUAGCCUGUAAAUAAAGAUGACAUCGCCUACAUUAAA,0.364 ratio
UAUAAGAACUCUUGCAGCCUUAGAUGUUAUACAAAAUAAGUAUCUGAUUGUAAGAGGUGUUAGCACAGGUUUUUUUCUUUUCUUUUCUUUUUUUUUUUUAACACUUGUUUUGGGUACAAA,1.46 ratio
ACAUAAACUGGUAUUUUCGAACAAUAGGAAACUAUUUUUUCUCCUUUUUUUACAGUUUUAGUACGUAUCUGGCUUGUAUGUGGAAGACUAAAAAGUUGAUUUGCUAAAUGUGGUCUUUGC,0.416 ratio
GUCAUCUGACUGGAUGAAGACUGUUCCAAGUUAUAACCAAACAAAUAGCUCCGUGGACUUUAGAAAUUAUAUGAUGAGAGAUGAGACUCUGGAACCACUACCUAAAAACUGGGAGAUGGC,1.12 ratio
CAUUAACACAUGAAAUGUCUCCAGGGGGGUAUUAGAUUUGAUUUCUUACAUAUAAAACAAACCAACCAACCAUUUUUAAAGUAGAAGAGGGUUUUAGAUAGUGAAUAAAAUAUUCUUUUU,1.53 ratio
GCUUUAACCAAUUAUGUCUGUAAAUGUAUAUUGAGAGAAUUGAAGUAUUUAUAAACAGAGUGAUUUAUUUAAGGAAAAGCUCAUUCCUCUUUCAUAUGGUGGUCUAUGUUAAUUCCAUGU,1.06 ratio
GAGGUUUACUUCUUCCAACUUCAGUUUUUCAGGUUGUAGCUGAUUUUCUUUUUUUUGUUUUUCCCUUUCCGCUGUUCUUUUGCUUUCCCUUCUGUCUCCCCAACUUAAAAUACACAAGCU,1.62 ratio
UGCUGUUAAUGCACUGUAUACCAGGCAUCGUCUGAACUUAGUGUAAUCUAGGAGAUUUUAUAGUUUUAUUUUAAUGAAGUAUGGUUGAAGCAAAGCUGUUAGGAAUAUGUAGUCUUUUAC,2.82 ratio
AAUUUUCUCACUUUAGGUACCAUUGCCCAAUGCCCAAGAUCUUUUAUGUUCAGCUGACUGUAGGAAAUAAUGAAUUUUUUGGGGAAGGAAAGACUCGACAAGCCGCUAGACACAACGCCG,0.964 ratio
UGGGCAUCCUCUCUGGGGAGCUGCUGGCCGCUUAGCGUUGUUUGACUUUUGACCUUGACAUAGUACAUAGGCUUGUGGUUUUUUUUAAUUUAAAGAUAUUAAGACUUAAUUCACUAAAAU,0.774 ratio
UAAAGAAUCAGGUAUUUAAAUAUCAAGUGGAAAAAUUUGAAACUCUAUUUAUGAAUUAGUUAGGUUAUUUAAAGAAAAAGGUCAUUCCUCAUUUGUGAAGUGCUGUGCAGUAAGUGCAUU,0.999 ratio

# Sample 4
# Target: CCNE2, cyclin fold, Cln2 fusion (human)
# Technique: yeast growth competition, sequencing
# Matrix: yeast
# Setting: strong parent motif
# Relative to: not given
# Reading: higher = stronger binding
# Starting sequence: INSM1 docking peptide (human); PKAIRKLHFEDEV
Variant,normalised enrichment score
D11K,1.95
K2G,1.91
E12A,1.86
R5C,0.168
D11F,1.5
E10D,1.31
I4F,0.783
I4L,0.437
K2S,2.11
H8G,0.431
A3V,2.19
E10C,1.2
E12D,1.58
L7Y,-0.113
H8P,0.687
H8F,2.36
K2N,1.74
R5N,-0.277
E10A,0.978

# Sample 5
# Target: ABI1, truncated, D143A, DHFR fusion (Arabidopsis thaliana)
# Technique: DHFR PCA, deep sequencing
# Matrix: yeast
# Setting: methotrexate growth selection, single substitutions
# Together with: (+)-ABA 0.11 µM
# Relative to: wild-type fitted maximum
# Reading: higher = stronger binding
# Starting sequence: PYL1, truncated, DHFR fusion (Arabidopsis thaliana); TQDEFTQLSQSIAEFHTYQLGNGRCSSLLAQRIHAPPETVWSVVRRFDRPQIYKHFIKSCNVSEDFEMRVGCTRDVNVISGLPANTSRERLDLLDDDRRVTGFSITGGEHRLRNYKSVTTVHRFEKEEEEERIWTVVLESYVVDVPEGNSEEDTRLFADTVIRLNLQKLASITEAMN
Variant,relative binding score [%]
L20P,44.8
M176Y,7.79
L20R,32.2
S104E,-10.2
V100R,-7.11
R49L,3.34
G108M,4.56
R24W,-0.293
K116T,12.1
P36W,2.35
I133S,39.2
L94W,5.48
D48T,-2.66
D48I,-2.71
P146L,25.2
Q10L,11.6
D96R,-1.67
V40R,-0.85

# For quick reference, copied from above (sample 2):
Variant,binding fitness [natural log]
L31S,-1.49
E44Y,-1.26
E44K,-1.53
L38G,-1.5
